Measured values collected from several papers.
Compare with care: the assays were run in different laboratories. Several values in a cell are separate wells, animals, samples, runs or records. ± marks the error that the study gave.

`CC(C)=CCC/C(C)=C\CCn1cc(CC(P(=O)(O)O)P(=O)(O)O)nn1`: concentration “not detected” (CD-1 mouse, lung; intravenous, 0.5 mg/kg, 168 h, single dose).
`Cc1ccc(N2CC(N(C)C)C2)cc1C(=O)N[C@H](C)c1cc(-c2cnn(C)c2)nc2ccccc12` gave a viability of 95.1% and 92.5% and 98.9% (Vero E6; 125 µM).
`O=c1[nH]c2ccccc2c(=O)o1` — result for “degradation rate constant”: 2.1 h⁻¹ (chemical stability, HPLC-MS; borate buffered saline; pH 10.2, no N-acetyl-lysine).
The body weight of `CCc1nn(C)c2nc(-c3ccc(C(=O)O)cc3)nc(NCc3ccccc3)c12` is reported as 21.7 g and 20.3 g and 22.8 g and 20.2 g (NSG mice; dose not given, day 3).
With `CC(C)[C@H]1NC(=O)[C@@H](C)NC(=O)[C@@H](C(C)C)NC(=O)[C@@H](Cc2ccccc2)NC(=O)[C@@H](C(C)C)NC(=O)[C@@H]([C@H](C)O)NC(=O)[C@@H](Cc2ccc(O)cc2)NC(=O)[C@@H](CCCNC(=N)N)NC(=O)[C@@H]2CCCC[C@H]2NC(=O)[C@@H](CO)NC(=O)[C@H](Cc2ccc(O)cc2)NC(=O)CSC[C@@H](C(=O)NCCOCCOCCOCCOCCOCCOCCC(N)=O)NC(=O)[C@@H](CO)NC(=O)[C@@H](C(C)C)NC(=O)[C@@H](Cc2ccc(O)cc2)NC1=O` the stability time was no less than 12 h (simulated gastric fluid; pH 1.3, 37 °C, with: pepsin).
`O=C(CN1C(=O)C2(CCN(C(=O)c3ccc4[nH]ncc4n3)CC2)c2c(Br)cccc21)NCC(F)(F)F` gave a half-life of 1.2 h (male C57BL/6 mouse, plasma; intraperitoneal, 10 mg/kg).
`O=C1NC2(CC2)COc2ncc(F)cc2[C@H]2COCCN2c2ccn3ncc1c3n2`: “organ-to-body weight ratio” 0.036 ± 0.004% (Sprague-Dawley rat, female, ovaries; oral, 20 mg/kg/day, 4 weeks dosing, end of recovery).
Under “remaining intact peptide”, `CCCCCCCCCCCC(=O)C(C)C(=O)N1CCC[C@H]1C(=O)NC(C)(C)C(=O)NC(C)(C)C(=O)NC(C)(C)C(=O)N[C@](C)(CC)C(=O)NCCC(=O)N[C@@H](C)C(=O)N[C@](C)(CC)C(=O)N[C@@H](C)C(=O)N[C@@H](CC(C)C)C(=O)N[C@](C)(CC)C(=O)NCCC(=O)N[C@@H](C)C(=O)N[C@](C)(CC)C(=O)NCCC(=O)N[C@@H](C)C(=O)NC(C)(C)C(=O)NC(C)(C)C(=O)NC(C)(C)C(=O)N[C@@H](C)C(=O)N[C@@H](CC(=O)O)C(=O)O` (stereo partly drawn) is recorded as 48% (LC-MS; 50% pooled human serum in Tris-HCl buffer; 40 µM, 1 h, pH 7.5, 37 °C; reference: 0 h value).
`CSCC[C@H](NC(=O)CNC(=O)[C@H](CCCCN)NC(=O)[C@H](CC(C)C)NC(=O)[C@@H]1CCCN1C(=O)[C@H](CO)NC(=O)[C@H](Cc1c[nH]cn1)NC(=O)[C@H](Cc1c[nH]c2ccccc12)NC(=O)[C@H](CCCNC(=N)N)NC(=O)[C@H](CC(C)C)NC(=O)[C@H](CCCNC(=N)N)NC(=O)[C@H](Cc1c[nH]c2ccccc12)NC(=O)[C@H](CS)NC(=O)CCCCCNC(=O)CN1CCN(CC(=O)O)CCN(CC(=O)O)CCN(CC(=O)O)CC1)C(=O)O` [copper-64 labelled] has a tissue uptake of 0.23 %ID/g (C57BL/6J mice, B16-F10 tumour, brain; intravenous, 1.85 MBq, 2 h).
`CC[C@H](C)[C@H](NC(=O)[C@H](CCCCN)NC(=O)CNC(=O)[C@H](CC(C)C)NC(=O)[C@H](Cc1ccccc1)NC(=O)[C@H](CCCCN)NC(=O)[C@H](CO)NC(=O)[C@H](Cc1ccccc1)NC(=O)[C@H](Cc1c[nH]c2ccccc12)NC(=O)[C@H](CCC(N)=O)NC(=O)[C@@H](NC(=O)[C@H](Cc1ccccc1)NC(=O)CCCCCNC(=O)CN1CCN(CC(=O)O)CCN(CC(=O)O)CCN(CC(=O)O)CC1)C(C)C)C(=O)N[C@@H](CCC(=O)O)C(=O)N1CCC[C@H]1C(=O)N[C@@H](CC(=O)O)C(=O)N[C@H](C(=O)N[C@@H](CO)C(=O)N[C@@H](CCC(N)=O)C(=O)N[C@H](C(=O)N[C@@H](CCC(N)=O)C(=O)N[C@@H](CC(=O)O)C(=O)N1CCC[C@H]1C(=O)N[C@@H](CC(N)=O)C(=O)N[C@@H](CC(=O)O)C(=O)N[C@@H](CCC(N)=O)C(=O)N[C@@H](Cc1ccc(O)cc1)C(=O)N[C@@H](CCC(=O)O)C(=O)N1CCC[C@H]1C(=O)N[C@@H](Cc1ccccc1)C(=O)O)C(C)C)C(C)C` [copper-64 labelled] gave a tissue uptake of 2.42 ± 0.8 %ID/g (C57BL/6 mice, male, tumour-free, spleen; 4 h).
Under “PCE to total erythrocyte ratio”, `Cc1ccc(OCC(=O)N(Cc2cccs2)c2ccn[nH]2)cc1` is recorded as 0.66 ± 0.12 (micronucleus; CD-1 mouse Crl:CD-1(ICR), female, bone marrow; oral, 2000 mg/kg/day, 3 days).
Under “mean corpuscular volume”, `COc1ccc(CNc2ccc3c(c2)S(=O)(=O)C=C3)cc1` is recorded as 55 fL (male C57BL/6 mice, blood; intraperitoneal, 10 mg/kg, day 8, group average).
For `CCn1ccc(-c2cc([C@@H](C)NC(=O)c3cc(OC[C@@H]4CCN4C)ccc3C)c3ccccc3n2)n1`, the viability was 0.298% (African green monkey cells; 250 µM).
With `CC[C@H](C)[C@H](NC(=O)[C@H](Cc1c[nH]c2ccccc12)NC(=O)c1ccccc1)C(=O)N[C@@H](CCCNC(=N)N)C(=O)N[C@@H](Cc1ccc(O)cc1)C(=O)N[C@@H](CCCCN)C(=O)N[C@@H](Cc1c[nH]c2ccccc12)C(=O)N1CCC[C@@H]1C(=O)N[C@@H](CCCNC(=N)N)C(=O)N[C@@H](CCCCN)C(=O)N[C@H](C(=O)N[C@H](C(=O)N[C@@H](CCCNC(=N)N)C(=O)N[C@@H](Cc1ccc(O)cc1)C(=O)N[C@@H](Cc1c[nH]c2ccccc12)C(=O)N[C@H](C(=O)NCC(=O)N1CCC[C@H]1C(N)=O)[C@@H](C)O)C(C)C)C(C)C` the melting temperature was 64.5 °C (circular dichroism; phosphate buffer; 30 µM, pH 6.5).
`CC(C)[C@@H]1NC(=O)CNC(=O)[C@H](CC(N)=O)NC(=O)[C@H](CCCNC(=N)N)NC(=O)[C@H](Cc2ccc(O)cc2)NC(=O)[C@H](C(C)C)NC(=O)[C@@H](NC(=O)[C@@H](NC(=O)[C@H](CC(N)=O)NC(=O)[C@H](Cc2c[nH]c3ccccc23)NC(=O)[C@H](C)NC(=O)[C@H](Cc2ccccc2)NC(=O)CNC(=O)[C@H](CCCCN)NC(=O)[C@H](Cc2ccccc2)NC(=O)[C@H](Cc2ccccc2)NC(=O)[C@H](CCCCN)NC(=O)OCC2c3ccccc3-c3ccccc32)C(C)C)CSSC[C@@H](C(=O)N[C@@H](Cc2c[nH]cn2)C(=O)N[C@@H](CCCNC(=N)N)C(=O)N[C@@H](CCCNC(=N)N)C(=O)N[C@@H](C)C(=O)N[C@@H](CC(N)=O)C(N)=O)NC(=O)[C@H](C(C)C)NC(=O)[C@H](CCCNC(=N)N)NC1=O` — result for “mean corpuscular haemoglobin”: 13.8 ± 0.17 pg (ICR mice, blood; intraperitoneal, 10 mg/kg, day 5).
For `CN[C@H](CC(C)C)C(=O)N[C@H]1C(=O)N[C@@H](CC(N)=O)C(=O)N[C@H]2C(=O)N[C@H]3C(=O)N[C@H](C(=O)N[C@H](C(=O)O)c4cc(O)cc(O)c4-c4cc3ccc4O)[C@H](O)c3ccc(c(Cl)c3)Oc3cc2cc(c3O[C@@H]2O[C@H](CO)[C@@H](O)[C@H](O)[C@H]2O[C@H]2C[C@](C)(NCc3ccc(-c4ccc(Cl)cc4)cc3)[C@H](O)[C@H](C)O2)Oc2ccc(cc2Cl)[C@H]1O`, the Vd was 1.24 L/kg (mouse, plasma; intravenous, 75 mg/kg).
`CC[C@H](C)[C@H](NC(=O)[C@H](C)NC(=O)[C@H](C)NC(=O)[C@H](CCC(N)=O)NC(=O)CNC(=O)[C@H](CC(C)C)NC(=O)[C@H](Cc1c[nH]cn1)NC(=O)[C@H](CCCCN)NC(=O)[C@H](C)NC(=O)CNC(=O)[C@H](CCCCN)NC(=O)[C@H](CCCNC(=N)N)NC(=O)[C@H](CC(C)C)NC(=O)[C@H](Cc1c[nH]c2ccccc12)NC(=O)[C@H](CCCCN)NC(=O)[C@H](CCCCN)NC(=O)[C@H](Cc1c[nH]c2ccccc12)NC(=O)CN)C(=O)N[C@@H](CCCCN)C(=O)NCC(=O)N[C@@H](CC(C)C)C(=O)N[C@@H](C)C(=O)N[C@@H](CO)C(=O)O` — result for “acute toxic concentration”: 5 µM (zebrafish embryos 4 hpf, E3 medium; 1 h).
`C=Cc1c(C)c2cc3nc(c(CC(=O)[O-])c4[n-]c(cc5nc(cc1[n-]2)C(C)=C5CC)c(C)c4C(=O)[O-])C(CCC(=O)[O-])C3C.[Cu+2].[Na+].[Na+].[Na+]` (stereo not drawn) gave a serum creatinine of 0.37 ± 0.08 mg/dL (Wistar rat, female; oral, 500 mg/kg daily, 28 days).
The reduction potential of `COc1c(N2CC3CCCNC3C2)c(F)cc2c(=O)c(C(=O)OCc3ccc([N+](=O)[O-])o3)cn(C3CC3)c12` (stereo not drawn) is reported as -0.81 V (cyclic voltammetry; anhydrous acetonitrile; concentration not given; reference: Ag/AgCl).
`C=CC(=O)Nc1cccc(Cn2ncc3cnc(Nc4cnn(CCOC)c4)nc32)c1` has a serum TG of 0.53 ± 0.45 mM (female Sprague-Dawley rat; oral, 180 mg/kg/day, day 28, 28-day subacute toxicity).
`CCC1=C(C)C2=C(c3ccc(P(=NC4=[O+][Ru-]([Cl])[n+]5ccccc54)(c4ccccc4)c4ccccc4)cc3)c3c(C)c(CC)c(C)n3[B-](C)(C)[N+]2=C1C.Cc1ccc(C(C)C)cc1.[Cl-]` gave a stability time of no less than 2.5 weeks (DMSO-d6 solution).

For quick reference, copied from above:
`Cc1ccc(N2CC(N(C)C)C2)cc1C(=O)N[C@H](C)c1cc(-c2cnn(C)c2)nc2ccccc12` gave a viability of 95.1% and 92.5% and 98.9% (Vero E6; 125 µM).
`O=c1[nH]c2ccccc2c(=O)o1` — result for “degradation rate constant”: 2.1 h⁻¹ (chemical stability, HPLC-MS; borate buffered saline; pH 10.2, no N-acetyl-lysine).
